Published values pooled from the literature.
Lines come from different studies, so protocols differ.
Cell line: MDA-MB-231

SMILES	assay	test system	setting	how to read	measurement	value
CN[C@@H](C)C(=O)N[C@H]1CN(C(=O)Cc2ccccc2)CC[C@H]2CC[C@@H](C(=O)NCc3ccc(Br)cc3)N2C1=O	caspase-8, caspase-3, PARP cleavage, western blot		24 h		onset concentration	≥ 0.3 µM
CCC(C(=O)O)C1CCC(C)C(C(C)C(O)C(C)C(=O)C(CC)C2OC3(C=CC(=O)C4(CCC(C)(C5CCC(O)(CC)C(C)O5)O4)O3)C(C)CC2C)O1 (stereo not shown)	MTT		with: benzhydroxamic acid 35.5 µM		combination index	1.7
COc1ccc(C=CC(=O)c2cccc(O)c2)cc1	cell growth, MTT		100 µM, 48 h	relative to: DMSO	inhibition	99.8%
O=C(Cc1ccccc1)Nc1nc2ccccc2n1Cc1ccccc1	qPCR, refers to: VEGF		10 µM, 8 h, normoxia		mRNA level	decreased
CCCCCCCCCCCCCCCOC(=O)/C=C/c1cc(O)c(O)c(OC)c1	AO-PI flow cytometry		IC50, 24 h		early apoptotic cells	39.7%
C=CC(OC(C)=O)c1cc(OC)c(OC(C)=O)c(OC)c1 (stereo not shown)	Western blot		IC50, 24 h	relative to: untreated	Bcl-xL protein decrease	30 to 50%
CC1(C)C(=CC=C2CCCC(C=CC3=[N+](CCCCCC(=O)O)c4ccccc4C3(C)C)=C2c2ccccc2)N(CCCCCC(=O)O)c2ccccc21		serum-free medium	20 µM, with: 1 mM DMOG hypoxia	relative to: no DMOG	cellular uptake	increased
Cc1ccc(C(C)C)cc1.O=C(N=P(c1ccccc1)(c1ccccc1)c1ccccc1)c1ccccn1.[Cl-].[Cl][Ru+]	Transwell Geltrex invasion		IC20, 24 h	relative to: untreated	invasion reduction	85.2%
C=CC(OC(C)=O)c1ccc(OC(C)=O)c(OC)c1 (stereo not shown)	Western blot		IC50, 24 h	relative to: untreated	Bcl-2 protein decrease	40 to 50%
CC1OC2OC3C4=C(OC3(C)C12O)C(=O)c1c(O)cccc1C4=O (stereo not shown)	annexin V/PI flow cytometry		8 µg/mL, 48 h		early apoptotic cells	60.6%

For quick reference, copied from above:
SMILES	assay	test system	setting	how to read	measurement	value
O=C(Cc1ccccc1)Nc1nc2ccccc2n1Cc1ccccc1	qPCR, refers to: VEGF		10 µM, 8 h, normoxia		mRNA level	decreased
